Published values pooled from the literature.
Protocols differ between the studies behind these lines. “And” joins repeats or separate records; there may be more than shown. ± marks the error that the study gave.
uncharacterized protein: uncharacterized protein (Anopheles coluzzii, UniProt A0A6E8VQK1)

COc1ccc(N2C(=O)N(c3c(C)cccc3Cl)Cc3cnc(Nc4ccc(C5CCN(C)CC5)cc4OC)nc32)nc1 — inhibition (PRKCI (Homo sapiens, UniProt P41743); kinase activity, inhibitor; 0.5 µM, kinase PKC-IOTA): 2.41%
CN1CCN(c2cc(-c3ccncc3)c(-c3ccc4ccccc4c3)nn2)CC1 — activation (Oxytocin receptor (OXTR, Homo sapiens, UniProt P30559); agonist, FLIPR; 12.5 µM): -0.6%
CCCCC/C=C\C/C=C\C/C=C\C/C=C\CCCC(=O)NCCO — maximal open probability (Trpv1 (Mus musculus, UniProt Q704Y3); ion current, agonist, whole-cell patch clamp; HEK293; baseline: 3 mM 2-APB current): 0.85 ± 0.14
Nc1ncnc2c1ncn2[C@@H]1O[C@H](COP(=O)(O)OP(=O)(O)OP(=O)(O)O)[C@@H](O)[C@H]1O — fluorescence ratio F+/F- (matB (Rhodopseudomonas palustris, UniProt Q6ND88, C106A/K488A/Q457C/R286C); binding; pH 7.5, 50 mM Tris-HCl, 100 mM NaCl, gel-filtered protein): 2.9
Clc1cc2c(cc1Cl)Oc1cc(Cl)c(Cl)cc1O2 — Hill slope (Ahr (Rattus norvegicus, UniProt P41738); reporter gene, agonist; 96-well format): 41.9
CC12CCC(CC1)C(C)(C)O2 — ΔG (1,8-cineole 2-endo-monooxygenase (cinA, Citrobacter braakii, UniProt Q8VQF6); isothermal titration calorimetry; wild type): -6.8 kcal/mol
O=C(Nc1cnccc1Cl)N1CCN(Cc2ccc3c(c2)OC(F)(F)O3)CC1 — inhibition (central imidazoline I2 receptor, rat; binding; 50 µM, together with: [3H]idazoxan): 9%
CNC(=O)[C@H]1[Se][C@@H](n2cnc3c(NCc4cccc(I)c4)ncnc32)[C@H](O)[C@@H]1O — selectivity ratio (ADORA3 (Homo sapiens, UniProt P0DMS8); radioligand binding; baseline: Ki A1 over Ki A3): ≥ 800 fold
O=C1[C@H]2CCCN2[C@H](c2ccc3c(c2)OCO3)N1c1ccc(Cl)c(Cl)c1 (mixture of isomers) — kinase activity (CAMK2G (Homo sapiens, UniProt Q13555); ADP-Glo; 100 µM; baseline: vehicle): no effect
COc1cc(C(=O)N2CC[C@@H](O)[C@@H](N)C2)cc2nc(-c3cc4ccccc4n3CC3CC3)n(C)c12 — citrullination (PADI3 (Homo sapiens, UniProt Q9ULW8); enzyme activity, cell lysate; HEK293 expressing PADI3; 100 µM, together with: calcium 2 mM): no effect
CC1(C)C(C=C(Cl)Cl)C1C(=O)OCc1cccc(Oc2ccccc2)c1 (stereo not shown) — remaining activity (uncharacterized protein; enzyme activity, inhibitor; Sf9 cell homogenate; 9.302 µM, 0.1667 h, together with: α-naphthyl acetate substrate; baseline: no inhibitor): 96.2%
COC(CNC(=O)c1ccccc1OCC(=O)O)[CH2][Hg][OH] (stereo not shown) — ΔTm (SLC25A13 (Homo sapiens, UniProt Q9UJS0); thermal stability, CPM thermal shift; 0.1 mM, DDM-solubilised protein): < 0 °C
CC1(C)[C@H](C(=O)O[C@H](C#N)c2cccc(Oc3ccccc3)c2)[C@@H]1C=C(Br)Br — remaining activity (uncharacterized protein; enzyme activity, inhibitor; Sf9 cell homogenate; 0.04545 µM, 0.1667 h, together with: α-naphthyl acetate substrate; baseline: no inhibitor): 99.1%
C[N+](C)(C)C — affinity ratio (Chrnd/Chrna1/Chrne (Mus musculus, UniProt P02716+P04756+P20782, G173K/S470W); ligand binding, agonist, single-channel kinetics; chain K; baseline: wild type over mutant): 0.9
CC[C@H](C)[C@H](NC(=O)CNC(=O)[C@@H](N)CCCCN)C(=O)N[C@@H](CC(C)C)C(=O)N[C@@H](CCCCN)C(=O)N[C@@H](CC(N)=O)C(=O)N[C@@H](CCCNC(=N)N)C(=O)N[C@@H](C)C(=O)N[C@@H](CCCNC(=N)N)C(=O)N[C@@H](CCCNC(=N)N)C(=O)N[C@@H](CCC(=O)O)C(=O)N[C@@H](CCCNC(=N)N)C(=O)N1CCC[C@H]1C(=O)NCC(=O)N[C@@H](CCCCN)C(=O)N[C@@H](CCCNC(=N)N)C(=O)N[C@@H](CCCCN)C(=O)N[C@H](C(=O)N[C@H](C(=O)N[C@H](C(=O)N[C@@H](Cc1c[nH]c2ccccc12)C(=O)N1CCC[C@H]1C(=O)N[C@@H](CCC(=O)O)C(=O)N[C@@H](CCC(=O)O)C(=O)NCC(=O)N[C@@H](CCCCN)C(=O)N[C@@H](CC(C)C)C(=O)N[C@@H](CCCNC(=N)N)C(=O)N[C@@H](CCC(=O)O)C(=O)N[C@@H](Cc1ccc(O)cc1)C(=O)N[C@@H](Cc1ccccc1)C(=O)N[C@@H](Cc1ccc(O)cc1)C(=O)N[C@@H](Cc1ccccc1)C(=O)N[C@@H](CCC(=O)O)C(=O)N[C@@H](CC(C)C)C(=O)N[C@@H](CC(=O)O)C(=O)N[C@@H](CCC(=O)O)C(=O)N[C@H](C(=O)N[C@@H](CCC(=O)O)C(=O)N[C@@H](CCCNC(=N)N)C(=O)N[C@H](C(=O)N[C@@H](CC(N)=O)C(=O)N[C@H](C(=O)O)C(C)C)C(C)C)[C@@H](C)O)[C@@H](C)O)C(C)C)[C@@H](C)O — ΔG of binding (PPP1CA (Homo sapiens, UniProt P62136); ITC; concentration not given, 25 °C, PP1α 7-330): -11.6 ± 0.2 kcal/mol
CN(C(=O)n1cnc(-c2ccc[n+]([O-])c2)c1)C1CCCCC1 — inhibition (MAPKAPK5 (Homo sapiens, UniProt Q8IW41); kinase activity, inhibitor; 50 µM, together with: PRAK substrate peptide): -1%
CC(CCn1ccc(-c2ccc(-c3cn(CC45CC(C4)C5)nn3)cc2)cc1=O)(C(=O)NO)S(C)(=O)=O (stereo not shown) — residence time (UDP-3-O-acyl-N-acetylglucosamine deacetylase (Pseudomonas aeruginosa, UniProt P47205); baseline: 1): ~3 fold
O=C(Nc1cccnn1)N1CCC(=Cc2cccc(Oc3ccc(C(F)(F)F)cn3)c2)CC1 — inhibition of binding (GABBR1 (Homo sapiens, UniProt Q9UBS5); radioligand binding; 50 µM, together with: [3H]CGP-54626): 19%
COc1cc(N)c(Cl)cc1C(=O)NC1CN2CCC1CC2 (stereo not shown) — log2 fold change (Probable G-protein coupled receptor 148 (GPR148, Homo sapiens, UniProt Q8TDV2); β-arrestin recruitment, TANGO luminescence, measured: GPR148; concentration not given; baseline: basal luminescence): 0.059
[2H]c1c([2H])c([C@]2([2H])CCCN2C(=O)C(C)(C)Oc2ccc3cn[nH]c3c2)c([2H])c([2H])c1C([2H])([2H])[2H] — remaining binding (BMPR1B (Homo sapiens, UniProt O00238); KINOMEscan; 1 µM; baseline: DMSO control): 97%
CC[C@H](C)[C@H](NC(=O)[C@H](Cc1c[nH]cn1)NC(=O)[C@@H]1CSSC[C@H](NC(=O)[C@H](Cc2c[nH]cn2)NC(=O)[C@H](Cc2ccccc2)NC(=O)CN2CCCN3CCN(CC(=O)O)CCCN(CC2)Cc2cccc(n2)C3)C(=O)N2C[C@H](O)C[C@H]2C(=O)N[C@@H](Cc2ccc(O)c(Cl)c2)C(=O)N[C@@H](CC(=O)O)C(=O)N[C@@H](CC(C)C)C(=O)N1)C(=O)N[C@@H](CC(C)C)C(=O)NCc1ccc(CNC(=O)CN2CCCN3CCN(CC(=O)O)CCCN(CC2)Cc2cccc(n2)C3)cc1 — clot-to-organ ratio (Fgg/Fga/Fgb, fibrin form (Rattus norvegicus, UniProt P02680+P06399+P14480); ex vivo biodistribution; Wistar rat, arterial thrombus model; 2 h): 1
Nc1nc2c(ncn2[C@@H]2O[C@@H]3COP(=O)(O)O[C@H]4[C@@H](O)[C@H](n5cnc6c(=O)[nH]c(N)nc65)O[C@@H]4COP(=O)(O)O[C@H]3[C@H]2O)c(=O)[nH]1 — binding enthalpy (ΔH) (Cell cycle histidine kinase CckA, R374A; cytoplasmic region (Caulobacter vibrioides, UniProt Q9X688, R374A); isothermal titration calorimetry; Caulobacter crescentus; concentration not given, 12 °C, together with: AMPPNP 5 mM): 0.7 kcal/mol
CC(C)(C)C(O)/C(=C\c1ccc(Cl)cc1Cl)n1cncn1 (stereo not shown) — fold change (Gastrotropin (FABP6, Homo sapiens, UniProt P51161); binding, affinity selection mass spectrometry; 100 nM, pooled screen; baseline: other proteins): 27
O=C(c1ccc(Cl)cc1)N1CCN2C(=O)N(OC(=O)N3CCOc4ccccc43)C(=O)C2C1 (stereo not shown) — mean protein ratio (PLA2G15 (Homo sapiens, UniProt Q8NCC3); MS-based ABPP; SW-620 conditioned medium; 10 µM, 1 h, 37 °C; baseline: compound over DMSO, lower = more inhibition): 1.11
C[C@H]1CN(c2n[nH]c3nc(N[C@H]4CC[C@H](NS(=O)(=O)CCC(F)(F)F)CC4)ncc23)CCO1 — relative abundance (CHUK (Homo sapiens, UniProt O15111); inhibitor, Kinobeads competition profiling; 0.032 µM; baseline: vehicle): 1.13
Cc1cc(-c2nsc(=O)o2)c(S(C)(=O)=O)s1 — kobs/[I] (PSMB7 (Homo sapiens, UniProt Q99436); irreversible inhibitor; human PA28-activated proteasome): 0.47 M⁻¹ s⁻¹
C[C@]12CC[C@H]3[C@@H](CCC4=CC(=O)CC[C@@]43C)[C@@H]1CC[C@@H]2C(=O)CO — k2 (CYP11B2 (Homo sapiens, UniProt P19099, A320V)): 0.34 ± 0.06 s⁻¹
O=C1CC(C(=O)O)NC(=O)N1 (stereo not shown) — kred (Dihydroorotate dehydrogenase A (fumarate) (pyrDA, Lactococcus lactis subsp. cremoris, UniProt A2RJT9, V133T); flavin reduction, stopped-flow; Lactococcus lactis; pH 8.5, 4 °C): 41 ± 0.8 s⁻¹
N.N.O=C([O-])C1(C(=O)[O-])CCC1.[Pt+2] — IC30 (Voltage-dependent P/Q-type calcium channel subunit alpha-1A (Homo sapiens, UniProt O00555); ion current, antagonist, automated patch clamp): > 30 µM
C[C@@H](O)[C@H](NC(=O)[C@H](Cc1ccccc1)NC(=O)[C@H](Cc1ccccc1)NC(=O)[C@H](CC(=O)O)NC(=O)[C@H](CC(=O)O)NC(=O)[C@H](Cc1c[nH]c2ccccc12)NC(=O)[C@H](CO)NC(=O)[C@@H](N)CCCCN)C(=O)N[C@@H](CCCNC(=N)N)C(=O)O — koff (Epithelial sodium channel subunit alpha (Homo sapiens, UniProt P37088); binding, bio-layer interferometry): 0.0102 s⁻¹
COc1cc(Nc2ncc(F)c(Nc3ccc4c(n3)NC(=O)C(C)(C)O4)n2)cc(OC)c1OC — inhibition (NEK3 (Homo sapiens, UniProt P51956); KINOMEscan; 10 µM): 99%
C[C@@H](O)[C@H](NC(=O)c1ccc(-c2ccccc2)cc1)C(=O)NO — entropy change (ΔS) (UDP-3-O-acyl-N-acetylglucosamine deacetylase (Pseudomonas aeruginosa, UniProt P47205, C40S); isothermal titration calorimetry; concentration not given, 298 K, untagged protein, averaged): 0.0145 kcal/mol/K
O=C(Cc1cccs1)N[C@@H]1C(=O)N2C(C(=O)O)=C(/C=C/c3ccc([N+](=O)[O-])cc3[N+](=O)[O-])CS[C@H]12 — Km (blaNDM-1 (Klebsiella pneumoniae, UniProt C7C422); hydrolysis, substrate): 1.1 ± 0.3 µM
CC1=NCCc2c1[nH]c1cc(O)ccc21 — remaining activity (DCLRE1A (Homo sapiens, UniProt Q6PJP8); exonuclease activity, inhibitor, fluorescence HTS; 10 µM, 80 min, together with: 8 nM 5P-FQ substrate): 16.6%
C/C=C1/C(=O)C[C@H]2[C@@H]3CCC4=CC(=O)CC[C@]4(C)[C@H]3CC[C@]12C — IC50 (Nuclear receptor subfamily 1 group I member 3 (Homo sapiens, UniProt Q14994); coactivator recruitment): inactive
O=P(O)(O)OC[C@H]1C[C@@](O)(CO)[C@@H](O)[C@H](O)[C@@H]1O — apparent Vmax (2-epi-valiolone synthase (Actinosynnema mirum, UniProt C6WFL3); phosphate release; 50 µM): 1.9 ± 0.2 µM/min
CC[C@@H](C)[C@@H](NC(=O)[C@@H](Cc1ccc(O)cc1)NC(=O)[C@H]1CCCN1C(=O)[C@@H](CCCNC(=N)N)NC(=O)[C@H](N)Cc1c[nH]cn1)C(=O)N[C@H](C)C(=O)N[C@H](Cc1c[nH]cn1)C(=O)N[C@H](CCCNC(=N)N)C(=O)N[C@H](CCCCNC(=O)c1cccc(S(=O)(=O)F)c1)C(=O)N[C@H](Cc1ccc(O)cc1)C(=O)N[C@H](CO)C(=O)N[C@H](Cc1ccccc1)C(N)=O — surface expression (Transferrin receptor protein 1 (Tfrc, Mus musculus, UniProt Q62351); flow cytometry; RAW264.7; 24 h, pH 7.4, unit not given; baseline: 0 h): 0.919 and 0.887

Some of these lines once more:
COc1ccc(N2C(=O)N(c3c(C)cccc3Cl)Cc3cnc(Nc4ccc(C5CCN(C)CC5)cc4OC)nc32)nc1 — inhibition (PRKCI (Homo sapiens, UniProt P41743); kinase activity, inhibitor; 0.5 µM, kinase PKC-IOTA): 2.41%
CN1CCN(c2cc(-c3ccncc3)c(-c3ccc4ccccc4c3)nn2)CC1 — activation (Oxytocin receptor (OXTR, Homo sapiens, UniProt P30559); agonist, FLIPR; 12.5 µM): -0.6%
